Assay results collected from several papers.
Every numbered part comes from another study and shows a few of its results, in no order. “And” joins repeats or separate records; there may be more than shown.

Series 1 — read-out: enzyme activity; mode: inhibitor; concentration: 0.5 µM; baseline: control
Target: Mitogen-activated protein kinase 8 (MAPK8, Homo sapiens, UniProt P45983)
Sequence of UniProt P45983 (whole entry, looked up): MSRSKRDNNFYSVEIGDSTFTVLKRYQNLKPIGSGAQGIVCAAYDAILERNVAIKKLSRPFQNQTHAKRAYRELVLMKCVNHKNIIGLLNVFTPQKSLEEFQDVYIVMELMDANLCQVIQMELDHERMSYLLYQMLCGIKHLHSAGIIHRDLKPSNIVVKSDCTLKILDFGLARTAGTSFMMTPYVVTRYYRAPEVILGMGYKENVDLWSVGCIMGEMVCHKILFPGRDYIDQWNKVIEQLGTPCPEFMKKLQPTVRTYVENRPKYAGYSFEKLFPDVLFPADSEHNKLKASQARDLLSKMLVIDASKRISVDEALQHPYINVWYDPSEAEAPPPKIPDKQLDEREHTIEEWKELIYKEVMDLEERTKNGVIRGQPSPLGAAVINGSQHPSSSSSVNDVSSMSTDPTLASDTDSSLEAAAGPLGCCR
`Cc1ccc(NC2=CC(=O)c3sc(C)nc3C2=O)cc1` gave a remaining activity of 100%.
For `CC(=O)c1ccc(N2CCOCC2)cc1O`, the remaining activity was 96.8%.
The remaining activity of `N#CC(=C(N)Sc1ccc(N)cc1)c1ccccc1C(F)(F)F` is reported as 112%.
With `CC(C)(C)n1nc(Cc2cccc3ccccc23)c2c(N)ncnc21` the remaining activity was 91.9%.
`CC#CC(=O)Nc1cc2c(Nc3ccc(F)c(Cl)c3)ncnc2cn1` has a remaining activity of 98.9%.
`Oc1ccc(Nc2nc(-c3ccc(Cl)cc3)cs2)cc1` gave a remaining activity of 100%.
The remaining activity of `Fc1ccc(-c2nc3n(c2-c2ccncc2)CCS3)cc1` is reported as 99%.
`CCCC(=O)Oc1ccc2[nH]c(C(=O)c3cc4ccccc4[nH]3)cc2c1` has a remaining activity of 84%.
`COc1ccc(S(=O)(=O)N(CCO)c2ccccc2CN(C)CC=Cc2ccc(Cl)cc2)cc1` has a remaining activity of 104%.
`COc1cc(Nc2c(C#N)cnc3cc(OCCCN4CCN(C)CC4)c(OC)cc23)c(Cl)cc1Cl` has a remaining activity of 105%.
With `CSc1nc(-c2ccnc(N[C@@H](C)c3ccccc3)c2)c(-c2ccc(F)cc2)[nH]1` (racemic) the remaining activity was 86.3%.
The remaining activity of `O=S(=O)(NCCNC/C=C/c1ccc(Br)cc1)c1cccc2cnccc12` is reported as 92.7%.
`Nc1nc(Nc2ccc(S(N)(=O)=O)cc2)nn1C(=O)c1c(F)cccc1F` has a remaining activity of 85.9%.
`Nc1nccc(-c2c(-c3ccc(F)cc3)ncn2C2CCNCC2)n1` gave a remaining activity of 94.8%.
With `CC[n+]1c(/C=C/N(C)c2ccccc2)n(-c2ccccc2)c2ccc(-c3nc4ccccc4s3)cc21` the remaining activity was 96.3%.
`O=C1Cc2c([nH]c3ccc([N+](=O)[O-])cc23)-c2ccccc2N1` has a remaining activity of 99.6%.
`NC(=O)c1ccc(N(C(N)=O)c2c(F)cccc2F)nc1-c1ccc(F)cc1F` has a remaining activity of 100%.
`O=C1NC(=O)C(c2c[nH]c3ccccc23)=C1c1c[nH]c2ccccc12` has a remaining activity of 95.1%.
`Cc1cc(Nc2nc(-c3ccccc3)nc3ccccc23)n[nH]1` has a remaining activity of 92%.
For `Nc1ncnc2c1cnn2-c1ccccc1`, the remaining activity was 87.1%.
`CCc1[nH]c(-c2ccc(OC)cc2)nc1-c1ccncc1` has a remaining activity of 98.9%.
With `Cc1cncc2cccc(S(=O)(=O)N3CCCN(C(=O)CN)C[C@@H]3C)c12` the remaining activity was 98.8%.

Series 2 — technique: CellTiter-Glo; concentration: 1 µM; time: 4 days; baseline: DMSO
SMILES: CCCCN(CCCC)C(=O)CN1C[C@@H](c2cc(OC)c3c(c2)OCO3)[C@H](C(=O)O)[C@H]1CC(C)(C)CCC
For sample G normal colon organoid: viability read 107%.
sample E normal colon organoid — viability: 136%.
sample F normal colon organoid — viability: 110%.

Series 3 — cell line: mouse MPNST tumor cells; technique: high-content immunofluorescence imaging; item: nuclear SOX9; concentration: 10 µM; time: 12 h; notes: mean of 2 replicates; baseline: DMSO control; reading: higher = more nuclear SOX9
`Nc1c2c(nc3ccccc13)CCCC2`: “nuclear SOX9 intensity” 114 % of DMSO and 111 % of DMSO.
`COc1ccc2c3c1O[C@H]1C[C@@H](O)C=C[C@@]31CCN(C)C2` — result for “nuclear SOX9 intensity”: 92.8 % of DMSO and 107 % of DMSO.
`CCN(Cc1ccncc1)C(=O)C(CO)c1ccccc1` (centres unmarked): “nuclear SOX9 intensity” 106 % of DMSO and 95.4 % of DMSO.
`Cc1cccc(Oc2cnc(=O)[nH]c2)c1` — result for “nuclear SOX9 intensity”: 104 % of DMSO.
For `O=C(Nc1ccccc1)c1cc([N+](=O)[O-])ccc1Cl`, “nuclear SOX9 intensity” read 100 % of DMSO.
`CN(C(=O)CN(CCO)CC(=O)N(C)C(C)(C)Cc1ccccc1)C(C)(C)Cc1ccccc1` — result for “nuclear SOX9 intensity”: 141 % of DMSO.
`COc1ccc(CCN2CCN(CCCc3ccccc3)CC2)cc1OC` — result for “nuclear SOX9 intensity”: 94.7 % of DMSO.
`CN[C@@H](C)C(=O)N[C@H](C(=O)N1CCC[C@H]1C(=O)N[C@@H]1CCCc2ccccc21)C1CCCCC1` — result for “nuclear SOX9 intensity”: 148 % of DMSO.
For `CO[C@@H]1[C@H](O)[C@@H](CO)O[C@H]1n1cnc2c(NC3CCCCC3)ncnc21`, “nuclear SOX9 intensity” read 101 % of DMSO.
`O=C(NC1CCOCC1)c1ccc(-c2cc(-c3c[nH]nc3-c3ccccn3)ccn2)cc1`: “nuclear SOX9 intensity” 63.7 % of DMSO.
`CN1CCC(=C2c3ccccc3Sc3ccccc32)CC1`: “nuclear SOX9 intensity” 146 % of DMSO.
`Cc1nnc(C(=O)NC(C)(C)c2nc(C(=O)NCc3ccc(F)cc3)c(O)c(=O)n2C)o1` — result for “nuclear SOX9 intensity”: 88.3 % of DMSO.
`Clc1cccc(Nc2nnc(-c3ccccc3)c3ccccc23)c1`: “nuclear SOX9 intensity” 110 % of DMSO.
For `CCCCCCC[N+](CC)(CC)CCCCc1ccc(Cl)cc1`, “nuclear SOX9 intensity” read 74.9 % of DMSO.
`O=C(Nc1ccc(S(=O)(=O)Nc2ccccc2Cl)c(Cl)c1)c1ccccn1` — result for “nuclear SOX9 intensity”: 95.8 % of DMSO.
For `CCN[C@H]1CN(CCCOC)S(=O)(=O)c2sc(S(N)(=O)=O)cc21`, “nuclear SOX9 intensity” read 99.5 % of DMSO.

Series 4 — species: mouse; medium: microsomes or S9; concentration: 2 µM; time: 0.5 h
The remaining compound of `COc1cc(NC(=O)NC2CCN(c3nc4ccccc4n(CC(C)C)c3=O)CC2)cc(OC)c1` is reported as 73.8%.
With `CC1(C)CC(O)CC(C)(C)N1CC(O)COc1cccc2ccccc12` (centres unmarked) the remaining compound was 0%.
`O=C(N1CCOC2(CCCC2)C1)C1(c2ccccc2)CCOCC1` gave a remaining compound of 0.32%.
With `COc1ccccc1-n1nc2c(C)nnc(C)c2c1C` the remaining compound was 81%.
The remaining compound of `CCOc1cccc(CN(CCO)Cc2ccccc2C(=O)O)c1` is reported as 78.7%.
`CCOC(=O)Cn1c(=O)n(-c2cccc(O)c2)c2ncnc(N)c21` has a remaining compound of 75.9%.
For `CC(C)c1nn(C)c(Cl)c1CNCc1ccccc1CO`, the remaining compound was 7.27%.
For `O=S(=O)(c1cccc2cccnc12)N1CCCC1c1noc(CO)n1` (centres unmarked), the remaining compound was 53.9%.
The remaining compound of `Cc1cc(N(C)Cc2ncc(Br)cn2)n2nc(C)nc2n1` is reported as over 100%.
`COc1ccc(-c2cc(=O)c3c(O)c(OC)c(OC)c(OC)c3o2)cc1OC` gave a remaining compound of 6.14%.
The remaining compound of `O=C(C1CC(=O)N(C2CCCC2)C1)N1CCC(c2nnc3n2CCNC3)CC1` (centres unmarked) is reported as 86.9%.
The remaining compound of `Cc1c(C(=O)OC(C)C)sc2ncn(CC(=O)O)c(=O)c12` is reported as 84.1%.
For `COc1nc2cc(C)ccc2cc1CN(C)C1(C)CCS(=O)(=O)C1` (centres unmarked), the remaining compound was 8.07%.
With `CC(C)(C)OC(=O)N[C@@H](CC(=O)N1N=CCC1C(=O)OCc1ccccc1)Cc1cc(F)c(F)cc1F` (some centres unmarked) the remaining compound was over 99%.
With `CC(C)n1ncc2c1NC(=O)CC21C(=O)N(C)c2cc(Cl)cc(Cl)c21` (centres unmarked) the remaining compound was 20.4%.
For `Cc1ccc(-c2noc(CCC(=O)NC(C)c3ccc(Cl)cc3)n2)c(=O)n1C(C)C` (centres unmarked), the remaining compound was 0.0801%.
The remaining compound of `Cc1cc(-c2c3ccccc3c(Br)c3sc(C)c(C)c23)cc(C)c1O[C@H](Cc1ccccc1)C(=O)O` is reported as over 99%.
`Cc1noc(C)c1Cc1c(C(=O)N2CCC(Cc3nc(C4CCOCC4)no3)CC2)noc1C` has a remaining compound of 3.39%.
With `Cc1noc(-c2cccn2Cc2ccc(F)cc2Cl)n1` the remaining compound was 48.8%.
The remaining compound of `COc1nc(OC)c2nno/c(=N\Cc3ccc(F)cc3)c2n1` is reported as 0.788%.
With `Oc1ccc(-c2nccn2Cc2csc(-c3ncccn3)n2)cc1` the remaining compound was 35.8%.

A few entries again (series 3):
`CN(C(=O)CN(CCO)CC(=O)N(C)C(C)(C)Cc1ccccc1)C(C)(C)Cc1ccccc1` — result for “nuclear SOX9 intensity”: 141 % of DMSO.
`COc1ccc(CCN2CCN(CCCc3ccccc3)CC2)cc1OC` — result for “nuclear SOX9 intensity”: 94.7 % of DMSO.
`CN[C@@H](C)C(=O)N[C@H](C(=O)N1CCC[C@H]1C(=O)N[C@@H]1CCCc2ccccc21)C1CCCCC1` — result for “nuclear SOX9 intensity”: 148 % of DMSO.
For `CO[C@@H]1[C@H](O)[C@@H](CO)O[C@H]1n1cnc2c(NC3CCCCC3)ncnc21`, “nuclear SOX9 intensity” read 101 % of DMSO.
`O=C(NC1CCOCC1)c1ccc(-c2cc(-c3c[nH]nc3-c3ccccn3)ccn2)cc1`: “nuclear SOX9 intensity” 63.7 % of DMSO.
`CN1CCC(=C2c3ccccc3Sc3ccccc32)CC1`: “nuclear SOX9 intensity” 146 % of DMSO.
